Published values collected from several papers.
Every numbered part comes from another study and shows a few of its results, in no order. Substitutions count along the parent as printed.

Series 1
Target: Phosphate system positive regulatory protein PHO4, full length, GST-tagged (PHO4, Saccharomyces cerevisiae, UniProt P07270, residues 1-312)
Technique: competition protein-binding microarray
Form: double-stranded DNA, one strand shown
Matrix: in vitro
Concentration: 2 µM
Notes: whole 60-bp probe, lowest competitor level
With: Cbf1 competitor, 0.05 µM
Direction: higher = stronger binding
Shared flanks, not repeated: … GTCTTGATTCGCTTGACGCTGCTG
Construct (chain): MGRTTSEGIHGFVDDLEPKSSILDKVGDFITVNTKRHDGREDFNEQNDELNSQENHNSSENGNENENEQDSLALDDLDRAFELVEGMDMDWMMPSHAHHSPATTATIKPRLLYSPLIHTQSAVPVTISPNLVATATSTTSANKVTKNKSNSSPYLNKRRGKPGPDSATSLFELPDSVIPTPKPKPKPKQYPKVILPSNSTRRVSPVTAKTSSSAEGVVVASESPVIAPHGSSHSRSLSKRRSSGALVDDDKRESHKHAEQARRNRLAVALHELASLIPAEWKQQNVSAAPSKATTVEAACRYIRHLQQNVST
With `TGTTTCGCGGCGTTACACGTGAGATCCTATTATTTC` the fluorescence intensity was 10100 a.u.
For `CTTTCCCGATCTTGAAGAGTGGGTGTAGCACATTTG`, the fluorescence intensity was 4560 a.u.
`CTTTCCCGATCTTTTCACGTGCGTTTAGCACATTTG` gave a fluorescence intensity of 14000 a.u.
For `GCAGATAGACGCTCGCCCGTGAGCCACTCAGGACGC`, the fluorescence intensity was 3460 a.u.
`CATACACCAAACGCAAATGTGCGGACGGACAAATTC` gave a fluorescence intensity of 5490 a.u.
`AAGCGGATGGACTGGCACGCTCACCATCTGGGTTGG` gave a fluorescence intensity of 8110 a.u.
With `ACCTGCACCGCCACCCCTTCCAGATCTATTTAAAAC` the fluorescence intensity was 5540 a.u.

Series 2
Target: CCND1, cyclin fold, Cln2 fusion (human)
Technique: yeast growth competition, sequencing
Matrix: yeast
Notes: weak parent motif
Reference: not given
Direction: higher = stronger binding
Parent: PKMYT1 docking peptide (human); SFEPRNLLSLFED
`S1A` — result for “normalised enrichment score”: -0.0121.
`L8M` — result for “normalised enrichment score”: 1.25.
`N6L` — result for “normalised enrichment score”: 1.42.
Under “normalised enrichment score”, `L7R` is recorded as 0.92.
Under “normalised enrichment score”, `L10E` is recorded as 1.54.
`L8H`: “normalised enrichment score” 1.45.

Series 3
Target: Fragile X messenger ribonucleoprotein 1, C-terminal low-complexity region (Fmr1, Mus musculus, UniProt P35922)
Technique: RNA Bind-n-Seq
Form: RNA
Matrix: in vitro
Concentration: 200 nM
Notes: whole 134-nt RNA, ends assumed
With: 150 mM KCl
Reference: input library
Direction: higher = stronger binding
Shared flanks, not repeated: GGGAGUUCUACAGUCCGACGAUC … UGGAAUUCUCGGGUGUCAAGG
`GUCCUGUGCUACACAUCGUAUGUACCGAAUCGGGUUUUUGGGGUUUUUGGGUUUUUGGGAAAGUAUUAUGUUACGCCGUUCGGAUCUGCA` gave a log2 enrichment of 0.308.
For `AAGUCCUGUGCUACACAUCGUAUGUACCGAAUCGGGUUUGGGAGGGAAAAAAAGGGAAAGUAUUAUGUUACGCCGUUCGGAUCUGCACUU`, the log2 enrichment was 0.354.
`CACAGACAACACGCACCUACACAGACACAGAGGGAAGGGGUUGGGAUGGGGACAGGGUGCACAGCAGGGCGGGGUAGGACCCCAGCCCCU` has a log2 enrichment of 1.37.
With `UGGCCCUGGUGGCAUGCGGGGAGGAAGAGGUGGCCUCAUGGAACGUGGUGGUCCCGGUGGAAUGUUCAGAGGUGGCCGUGGUGGAGACAG` the log2 enrichment was 0.113.
`UGGGAGGUGGAUUUUGUUUAUUUUAUUAGCUCAUUUCCAGGGGUGGGAAUUUUUUUUUAAUAUGUGUCAUGAAUAAAGUUGUUUUUGAAA` has a log2 enrichment of 0.213.
`CAAGUCCUGUGCUACACAUCGUAUGUACCGAAUCGGGGAAAGGGGAGGGGAGGGGAAAGUAUUAUGUUACGCCGUUCGGAUCUGCACUUC` gave a log2 enrichment of 1.11.

Other studies, line by line
`PhoQ, residues 284 288 289 292 302 303 SNGLAW` has a fold induction of 7.64 (PhoP, residues 12 14 15 18 19 QWHVF (Escherichia coli, UniProt P23836); Sort-seq, refers to: YFP reporter; E. coli; PhoQ-PhoP variant library, with: 10 µM Mg2+; reference: high Mg2+ state, higher = stronger signaling).
